{"data": "Measured values from different studies", "note": "Parts stem from different laboratories: compare values within a part only. Substitutions count along the parent as printed."}
{"data": "Study 1", "target": "Fragile X messenger ribonucleoprotein 1, C-terminal low-complexity region (Fmr1, Mus musculus, UniProt P35922)", "technique": "RNA Bind-n-Seq", "molecule type": "RNA", "medium": "in vitro", "concentration": "200 nM", "setting": "whole 134-nt RNA, ends assumed", "together with": "150 mM KCl", "reference": "input library", "direction": "higher = stronger binding", "constant ends, left off below": "GGGAGUUCUACAGUCCGACGAUC … UGGAAUUCUCGGGUGUCAAGG"}
{"Strand": "AAGUCCUGUGCUACACAUCGUAUGUACCGAAUCGGGCCCCGGGCCCCGGGCCCCGGAAAGUAUUAUGUUACGCCGUUCGGAUCUGCACUU", "log2 enrichment": -0.642}
{"Strand": "CCUGCUUUUGGGGGUGACCGCCGGAGCGCGGCGUGAGCCCUCCCCCUUGGGAUCCCGCAGCUGACCAGUCGCGCUGACGGACAGACAGAC", "log2 enrichment": -2.33}
{"Strand": "CAAGUCCUGUGCUACACAUCGUAUGUACCGAAUCGGGCCCGGGGCCCGGCCCGGGGAAAGUAUUAUGUUACGCCGUUCGGAUCUGCACUU", "log2 enrichment": -0.909}
{"Strand": "CCUCAAGUCCUGUGCUACACAUCGUAUGUACCGAAUCGGUUGGGUUGGGUUGGAAAGUAUUAUGUUACGCCGUUCGGAUCUGCACUUCCA", "log2 enrichment": 0.00911}
{"Strand": "ACCAUGCAGGUGGGCAUCUUUGGGAAGUGGGGCAAGGGGGGGAUAGGGAGGGGGUUAACACUUUGGGAACAGGUGGUCCCAGGUCGUUUC", "log2 enrichment": 0.94}
{"Strand": "CCUGUGCUACACAUCGUAUGUACCGAAUCGGCCCCCCCGGGGCCCCCCCGGGCCCCCCCGGAAAGUAUUAUGUUACGCCGUUCGGAUCUG", "log2 enrichment": -0.668}
{"Strand": "GCAGGAAGUAAAAACAAAUGGAAAUGCUUCGGAUAGUGGCAGGGGUAAAGGUUGCUAAGGAAAGGGUGGGAUGGGAGUGGGUAAAGAGUU", "log2 enrichment": 0.436}
{"data": "Study 2", "target": "Histone acetyltransferase KAT6A, winged helix 2, GST fusion (KAT6A, Homo sapiens, UniProt Q92794, residues 85-181)", "technique": "protein binding microarray", "molecule type": "double-stranded DNA, one strand shown", "medium": "in vitro", "concentration": "not given", "setting": "8-mer, flanks averaged, mean of 2 arrays, mostly near background", "reference": "not given", "direction": "higher = stronger binding", "Target sequence (chain)": "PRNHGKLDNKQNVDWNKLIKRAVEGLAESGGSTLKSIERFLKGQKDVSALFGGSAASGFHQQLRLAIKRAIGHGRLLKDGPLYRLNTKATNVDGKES"}
{"Strand": "ATTTGGCC", "E-score": 0.00258}
{"Strand": "GATTCAAA", "E-score": -0.106}
{"Strand": "TACCTTCA", "E-score": 0.0624}
{"Strand": "TCCGCCGA", "E-score": 0.274}
{"Strand": "AGCTGTTC", "E-score": -0.0687}
{"Strand": "GTCTTCAA", "E-score": -0.0849}
{"Strand": "GCTTGTCC", "E-score": 0.108}
{"Strand": "ACATATGC", "E-score": -0.217}
{"Strand": "TCCCTGCA", "E-score": -0.0382}
{"Strand": "CGTCAACA", "E-score": 0.0768}
{"data": "Study 3", "target": "CCND1, cyclin fold, Cln2 fusion (human)", "technique": "yeast growth competition, sequencing", "medium": "yeast", "setting": "weak parent motif", "reference": "not given", "direction": "higher = stronger binding", "starting sequence": "RB1 docking peptide (human); PKPLKKLRFDIEG; partner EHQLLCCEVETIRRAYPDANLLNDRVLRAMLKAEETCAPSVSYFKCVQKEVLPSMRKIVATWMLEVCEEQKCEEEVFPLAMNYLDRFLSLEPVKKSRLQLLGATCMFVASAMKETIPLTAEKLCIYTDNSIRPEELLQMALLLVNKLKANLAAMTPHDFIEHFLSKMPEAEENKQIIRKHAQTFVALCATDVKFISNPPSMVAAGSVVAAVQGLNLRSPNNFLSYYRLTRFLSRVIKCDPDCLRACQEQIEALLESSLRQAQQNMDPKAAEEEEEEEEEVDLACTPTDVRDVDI"}
{"Change": "PKPLKKLRFWIEG [D10W]", "normalised enrichment score": 0.484}
{"Change": "PKPLKKLREDIEG [F9E]", "normalised enrichment score": -0.526}
{"Change": "PKPLKKLRFMIEG [D10M]", "normalised enrichment score": 0.835}
{"Change": "PKPLKKLRFDIVG [E12V]", "normalised enrichment score": -0.37}
{"Change": "PKPLKKLRFDMEG [I11M]", "normalised enrichment score": -0.457}
{"Change": "PKPLKKLCFDIEG [R8C]", "normalised enrichment score": -0.245}
{"Change": "PKPLKKLRFDYEG [I11Y]", "normalised enrichment score": 0.115}
{"data": "Further values, each from its own experiment"}
{"Substance": "PhoQ, residues 284 288 289 292 302 303 MLMVEA", "target": "PhoP, residues 12 14 15 18 19 NYFRM (Escherichia coli, UniProt P23836)", "test": "Sort-seq, measured: YFP reporter", "test system": "E. coli", "conditions": "PhoQ-PhoP variant library, together with: 10 µM Mg2+", "scale": "reference: high Mg2+ state, higher = stronger signaling", "quantity": "fold induction", "value": 10.5}
{"note": "Excerpt of the above (study 3):"}
{"Change": "PKPLKKLRFDIVG [E12V]", "normalised enrichment score": -0.37}
{"Change": "PKPLKKLRFDMEG [I11M]", "normalised enrichment score": -0.457}
